Experimental data pooled from the literature.
Compare with care: the assays were run in different laboratories. ± marks the error that the study gave.

SMILES	tested on	assay	test system	setting	scale	endpoint	result
O=C(O)c1cc(O)c2c(c1)C(=O)c1cccc(O[C@@H]3O[C@H](CO)[C@@H](O)[C@H](O)[C@H]3O)c1C2=O	HepaRG co-cultured with HK-2	MTT		133.33 µM, 48 h	reference: untreated control	cell viability	58 ± 5.11%
CCn1cc(-c2cc(Cn3ccnc3)cc3c2OCCN([C@H](c2cc(OC)ccn2)C2CC2)C3=O)c(C(F)(F)F)n1			CD-1 mouse, male	intravenous, 3 mg/kg, 24 h		CL	29 mL/min/kg
O=C(C=Cc1ccccc1)Nc1cc(-c2ccnc(N3CCC(O)CC3)c2)ccn1			Sprague-Dawley rat, female, plasma	oral, 50.0 mg/kg		CL	606 ± 93.2 mL/min/kg
CCn1ccc2c([C@](O)(c3cnc(C(F)(F)F)c(Cl)c3)C3CC3)n(C)nc2c1=O			rat Sprague-Dawley male, plasma	intravenous, 1 mg/kg		CL	8.36 ± 1.19 mL/min/kg
C=C1C(=O)O[C@@H]2C[C@@]3(C)CCCC(=C)[C@@H]3C[C@H]12	COS-7			30 µM, 24 h, 0.1% DMSO, unit not given	reference: vehicle control	necrotic cells	1.61 ± 0.93
Cn1nc2c(=O)n(C3CC3)cnc2c1[C@](O)(c1cnc(C(F)(F)F)c(Cl)c1)C(F)(F)F			rat Sprague-Dawley male, plasma	intravenous, 1 mg/kg		CL	0.817 ± 987 mL/min/kg
COc1ccc(Br)cc1S(=O)(=O)Nc1cncc(C(N)=O)c1			mouse	intravenous, 2 mg/kg		CL	1.83 mL/min/kg
CO[C@H]1/C=C/O[C@@]2(C)Oc3c(C)c(O)c4c(c3C2=O)C2=NC3(CCN(CC(C)C)CC3)NC2=C(NC(=O)/C(C)=C\C=C\[C@H](C)[C@H](O)[C@@H](C)[C@@H](O)[C@@H](C)[C@H](OC(C)=O)[C@@H]1C)C4=O			CD-1 mouse, female, plasma	10 mg/kg single dose		CL	10.3 mL/min/kg
CC(=O)CC(c1ccccc1)c1c(O)c2ccccc2oc1=O (centres unmarked)			Sprague-Dawley rat, male, plasma	oral, 0.2 mg/kg, together with: miconazole	reference: cpd alone	CL	100%
COc1cc2c(c(O)c1OC)C(=O)c1c(cc(C)c(O)c1OC)C2=O	HepaRG co-cultured with HK-2	MTT		266.67 µM, 48 h	reference: untreated control	cell viability	36.9 ± 1.32%
COc1ccc(Cl)cc1S(=O)(=O)Nc1cncc(C(N)=O)c1			mouse	intravenous, 2 mg/kg		CL	5.14 mL/min/kg
C[C@H]1Oc2cc(cnc2N)-c2c(nn(C)c2C#N)CN(C)C(=O)c2ccc(F)cc21		population PK	moderate renal impairment patients, plasma	oral, 100 mg once daily, cycle 1 day 15, steady state		CL	194 mL/min
CCc1cnc2c(c1)[C@@H](N1CCOc3c(cc(Cn4ccnc4)cc3-c3cn(C)nc3C(F)(F)F)C1=O)CCC2			CD-1 mouse, male	intravenous, 3 mg/kg, 24 h		CL	95 mL/min/kg
Cc1nn(C2CC2)c(=O)c2nn(C)c(Cc3ccc(C(F)(F)F)c(C#N)c3)c12			rat Sprague-Dawley male, plasma	intravenous, 1 mg/kg		CL	2.31 ± 0.549 mL/min/kg

Repeated from above:
SMILES	tested on	assay	test system	setting	scale	endpoint	result
CCn1cc(-c2cc(Cn3ccnc3)cc3c2OCCN([C@H](c2cc(OC)ccn2)C2CC2)C3=O)c(C(F)(F)F)n1			CD-1 mouse, male	intravenous, 3 mg/kg, 24 h		CL	29 mL/min/kg
CC(=O)CC(c1ccccc1)c1c(O)c2ccccc2oc1=O (centres unmarked)			Sprague-Dawley rat, male, plasma	oral, 0.2 mg/kg, together with: miconazole	reference: cpd alone	CL	100%
